Measurements pooled from the literature.
Every numbered part comes from another study and shows a few of its results, in no order.

Study 1 — method: protein-binding microarray; molecule type: double-stranded DNA, one strand shown; medium: in vitro; concentration: 2540 nM top; setting: 60-bp whole probe; together with: salmon DNA 0.4 mg/ml; reference: random background probes; reading: higher = stronger binding; quantity: fitted relative affinity; constant ends, left off below: GCCTAGCAC … GTCTTGATTCGCTTGACGCTGCTG
Target: Interferon regulatory factor 3, full length, phosphomimetic (IRF3, Homo sapiens, UniProt Q14653, residues 1-427, S386D/S396D/S398D/S402D/T404D/S405D)
Residues (chain): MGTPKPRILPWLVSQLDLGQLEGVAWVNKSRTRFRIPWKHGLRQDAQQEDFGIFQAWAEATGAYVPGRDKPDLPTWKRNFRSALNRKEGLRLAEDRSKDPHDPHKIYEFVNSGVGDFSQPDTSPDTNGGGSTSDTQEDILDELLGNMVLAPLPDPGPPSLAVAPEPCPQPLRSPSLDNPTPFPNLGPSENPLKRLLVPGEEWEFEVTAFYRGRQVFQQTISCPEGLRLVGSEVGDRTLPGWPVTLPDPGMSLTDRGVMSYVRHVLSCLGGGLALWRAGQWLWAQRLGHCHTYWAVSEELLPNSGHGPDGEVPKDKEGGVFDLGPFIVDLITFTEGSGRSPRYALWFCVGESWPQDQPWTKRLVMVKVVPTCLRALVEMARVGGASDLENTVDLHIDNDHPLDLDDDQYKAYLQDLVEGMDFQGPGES
CTAGTTTCCATTTTCAGAATGTGCTAG: 10.4 z-score
TTAGAACTAAGTATCGATTAGTGCTAG: 0.425 z-score
CAAGTTACGGAATTTCCCTCTGTGCTA: 1.64 z-score
TCAGCTACACATCTCACACTGTGCTAG: 0.496 z-score
GACGCACTGGGGTTTCGAGACGTGCTA: -0.0299 z-score
GACGATCTCAGTCGCGAGACGTGCTAG: 0.0974 z-score
GACGGACTGGACTTTCCGGACGTGCTA: 0.442 z-score
TTAGGTATCCTTATCCATTAGTGCTAG: 5.61 z-score
TTCTACTTCTCTTTTTGCTTGTGCTAG: 2.98 z-score
TTTAAGCTCCTATCTTATGATGTGCTA: 1.19 z-score
GACGGTTTCGACTATCAGGACGTGCTA: 3.21 z-score
GACCATCTCAGTATCGAGACGTGCTAG: 1.51 z-score
GACGAACTGGCGTATCGAGACGTGCTA: -0.359 z-score
TTAGGGCTGGGGTTTCGGTTAGTGCTA: 2.03 z-score
TTACGTTTCCTTTTCCTTTAGTGCTAG: 9.84 z-score
GACGAACGGGGGACTGGAGACGTGCTA: -0.287 z-score
TCACACTTGTGTTTGGGACTGTGCTAG: 0.00543 z-score
TAAGGTTTCCTTTTCCTTTAGTGCTAG: 12.2 z-score
GGGGTTAGGGTCATTCATTCGTGCTAG: -0.556 z-score
TCAGTTTTACAATTTGCACTGTGCTAG: 2.2 z-score
CCCCATCTTGTTCCCAGAGAGTGCTAG: 1.77 z-score
TTACGACTGCTTATCCTTTAGTGCTAG: -0.17 z-score
TTAGGTATCGGTTTCGGATAGTGCTAG: 7.91 z-score
TCATGTTTTGTTTTTCAACTGTGCTAG: 2.62 z-score
TTAGAACTGGGGTTTCGATTAGTGCTA: 1.4 z-score

Study 2 — cell line: yeast with cyclin A1-Cln2 chimera; effect on: cell growth; mode: binder; method: competitive growth deep sequencing; molecule type: peptide; concentration: concentration not given; setting: peptide tiling library; reading: direction not given; quantity: growth enrichment score
NNIRKALSFDNRGEEH: -0.998
NFETPEAETPIRSPFK: -0.202
PQWPCGKHKRVLIFAS: -0.202
RNRGPKLNAMLRLGVL: -0.546
KDDDKAWEYEERDRRS: -0.302
FQDSGYNELKSCSFDN: 0.933
SGYLTDENEVGFRG: -0.21
QNPCGSKACRRLFGPV: -0.967
VLVRTSACRSLFGPVD: -1.33
GAEELEDLVHFSVSEL: 1.16
LENIEPLQVSFAVLSS: 0.368
VLPGGVPSPGASLTSM: 0.669
AEHPKPSACRNLFGPV: 0.123
SDSTVTKLDFDLEP: -0.364
VRDLSYRLVFLACCVA: -0.651
TSPGPVLLHPSPSTTQ: 0.245

Study 3 — method: aptamer microarray, sandwich; molecule type: DNA with 2'F-ANA; medium: in vitro; concentration: 200 nM; together with: Cy3 exosite-II aptamer, 400 nM; reading: higher = stronger binding; quantity: mean fluorescence intensity; sequence: GGTTGGTGTGGTTGG
Target: Prothrombin, mature alpha-thrombin (F2, Homo sapiens, UniProt P00734)
Setting: whole 15-mer aptamer, many near background
2'F-ANA at 1 2 3 7 9 11 12: 360 a.u.
2'F-ANA at 2 5 6 8 9 12 13: 110 a.u.
2'F-ANA at 1 3 8 9 10 14 15: 58.4 a.u.
2'F-ANA at 3 4 6 7 9 11 12: 619 a.u.
2'F-ANA at 3 6 11 12 14: 609 a.u.
2'F-ANA at 2 6 8 9 10 11 15: 107 a.u.
2'F-ANA at 1 2 3 6 7 8 9 11 13 14 15: 68.9 a.u.
2'F-ANA at 1 2 4 6 7 9: 112 a.u.
2'F-ANA at 1 4 6 7 9 11 15: 134 a.u.
2'F-ANA at 1 2 4 10 13: 45.4 a.u.
2'F-ANA at 1 2 7 13 14 15: 54.8 a.u.
2'F-ANA at 1 2 3 7 10 11 15: 64.3 a.u.
2'F-ANA at 4 6 9 11 13 15: 137 a.u.
2'F-ANA at 9 10 11 12 13 15: 174 a.u.
2'F-ANA at 2 7 8 9 10 11 14: 111 a.u.
2'F-ANA at 4 6 10 12 13: 82.1 a.u.
2'F-ANA at 1 3 4 5 7 8 11 12 14 15: 50.5 a.u.
2'F-ANA at 3 5 6 7 8 12 15: 296 a.u.
2'F-ANA at 1 2 4 5 7 9 11 12 14: 50.7 a.u.
2'F-ANA at 2 3 8 10: 392 a.u.
2'F-ANA at 2 4 6 7 9: 287 a.u.
2'F-ANA at 1 4 5 6 8 11 12 13 14 15: 124 a.u.
2'F-ANA at 6 8 12 13 14: 224 a.u.
2'F-ANA at 1 2 5 6 7 9 10 11 15: 46.8 a.u.
2'F-ANA at 3 5 6 9 14 15: 49.5 a.u.

Study 4 — method: RNA Bind-n-Seq; molecule type: RNA; medium: in vitro; concentration: 200 nM; setting: whole 134-nt RNA, ends assumed; together with: 150 mM LiCl; reference: input library; reading: higher = stronger binding; quantity: log2 enrichment; each molecule: 7-deaza-guanosine replaces G
Target: Fragile X messenger ribonucleoprotein 1, C-terminal low-complexity region (Fmr1, Mus musculus, UniProt P35922)
Constant ends, left off below: GGGAGUUCUACAGUCCGACGAUC … UGGAAUUCUCGGGUGUCAAGG
ACCAAACAGGUGGGCAUCUUUGGGAAGUGGGGCAAGGGGGGGAUAGGGAGGGGGGUAACACUUUGGGAACAGGUGGUCCCAGGUCGUUUC: 1.36
AAGUCCUGUGCUACACAUCGUAUGUACCGAAUCGGGGAGGGGAAAGGGGUUUGGGGAAAGUAUUAUGUUACGCCGUUCGGAUCUGCACUU: -1.28
CUCAAGUCCUGUGCUACACAUCGUAUGUACCGAAUCGGGUUGGGGUUGGGUUGGAAAGUAUUAUGUUACGCCGUUCGGAUCUGCACUUCC: -0.171
UGGCCCUGGUGGCAUGCGGGGAGGAAGAGGUGGCCUCAUGGAUCGUGGUGGUCACGGUGGAAUGUUCAGAGGUGGCCGUGGUGGAGACAG: -0.548
GUCCUGUGCUACACAUCGUAUGUACCGAAUCGGGAAAAAAGGAAAAAAGGAAAAAAGGGAAAGUAUUAUGUUACGCCGUUCGGAUCUGCA: -0.0238
AAGUCCUGUGCUACACAUCGUAUGUACCGAAUCGGGGCCCCGGCCCCGGGCCCCGGAAAGUAUUAUGUUACGCCGUUCGGAUCUGCACUU: -3.04
UGAGAGGUGGAUUUUGUUUAUUUUUUUAGCUCAUUUCCAGGGGUGGGAAUUUUUUUUUAAUAUGUGUCAUGAAUAAAGUUGUUUUUGAAA: -0.211
GCAGGAAGUAAAAACAAAUGGAAAUGCUUCGGAUAGUGGCAGGGGUGGGGGUUGCUAAGGAAAGGGUGGGAUUGGAGUGGGUAAAGAGUU: 1.33
UCAAGUCCUGUGCUACACAUCGUAUGUACCGAAUCGGGCCGGGGCCGGGCCGGGAAAGUAUUAUGUUACGCCGUUCGGAUCUGCACUUCC: 0.262
AAGUCCUGUGCUACACAUCGUAUGUACCGAAUCGGGGUGGGGAAAGGGGAAAGGGGAAAGUAUUAUGUUACGCCGUUCGGAUCUGCACUU: -0.115
UUCUCUUCACUCCCACCAGUGCGGGUGGUCUUUGCAGUGACUAUGGAAGGCAGUGCACGGAAAGUCAUCACUGUCCGGUCAGCCCUCAUU: 0.126

Study 5 — method: universal PBM; molecule type: double-stranded DNA, one strand shown; medium: in vitro; concentration: not given; reading: higher = stronger binding; quantity: E-score
Target: Sal-like protein 4, full length isoform B (SALL4, Homo sapiens, UniProt Q9UJQ4-2, residues 1-616)
Setting: 8-mer, flanks averaged, mean of replicates
CTGAGGTA: -0.00529
CAACGACC: -0.168
GCCGTTCC: -0.245
AAAAGCGG: -0.17
AGGTAACG: -0.0387
GAAAACGA: -0.0634
GAGCTCCA: -0.231
AAATATGG: 0.376
AGGCAACG: -0.25
CAGTGATC: -0.12
CTAGGCAA: -0.0318
AAAGACTA: 0.0353
GGGTAGCA: -0.0834
ACAGAGCT: -0.218
AGTTCTTA: 0.108
CGCAGACA: -0.0392
CTGTGGAA: -0.0625
GACACTCA: -0.144

Further values, each from its own experiment
PhoQ, residues 284 288 289 292 302 303 ALSMDL
fold induction (PhoP, residues 12 14 15 18 19 SMASL (Escherichia coli, UniProt P23836); Sort-seq, item: YFP reporter; E. coli; PhoQ-PhoP variant library, together with: 10 µM Mg2+; reference: high Mg2+ state, higher = stronger signaling): 5.78
